Experimental data gathered from unrelated publications.
Compare with care: the assays were run in different laboratories.

Cn1cc(-c2nc(N[C@@H]3CCCC[C@@H]3N)c(F)c3c2C(=O)NC3)cn1
hemorrhagic adverse events (refers to: Gastrointestinal haemorrhage; patients with relapsed or refractory AML; oral, 100 mg once daily): 14%

CC[C@H](C)[C@H](NC(=O)[C@H](CO)NC(=O)[C@H](CC(N)=O)NC(=O)[C@H](CC(C)C)NC(=O)[C@H](Cc1ccc(O)cc1)NC(=O)[C@H](CCCCN)NC(=O)[C@H](CCCCN)NC(=O)[C@@H](NC(=O)[C@H](C)NC(=O)[C@H](CCSC)NC(=O)[C@H](CCC(N)=O)NC(=O)[C@H](CCCCN)NC(=O)[C@H](CCCN=C(N)N)NC(=O)[C@H](CC(C)C)NC(=O)[C@H](CCCN=C(N)N)NC(=O)[C@@H](NC(=O)[C@H](Cc1ccc(O)cc1)NC(=O)[C@H](CC(N)=O)NC(=O)[C@H](CC(=O)O)NC(=O)[C@@H](NC(=O)[C@H](Cc1ccccc1)NC(=O)[C@@H](NC(=O)[C@H](C)NC(=O)[C@H](CC(=O)O)NC(=O)[C@H](CO)NC(=O)[C@@H](N)Cc1c[nH]cn1)C(C)C)[C@@H](C)O)[C@@H](C)O)C(C)C)C(=O)N[C@@H](CC(C)C)C(=O)N[C@@H](CC(N)=O)C(N)=O
maximum tolerated dose (BALB/c mice; acute, unformulated): 175 mg/kg

COc1ccnc(C(=O)N[C@H]2COC(=O)[C@H](Cc3ccccc3)[C@@H](OC(=O)C(C)C)[C@H](C)OC2=O)c1OCOC(=O)C(C)C
oral absorption (rabbit, both sexes; from urine, rinse, air): 42%

CC(=O)c1c(C)c2cnc(Nc3ccc(C4CCN(CCS(C)(=O)=O)CC4)cn3)nc2n(C2CCCC2)c1=O
AUC(0-t) (human, dose-escalation trial, plasma; oral, 75 mg twice daily, day 21, multiple doses): 2630 ng·h/mL

COc1cc2c(Oc3ccc4[nH]c(C)cc4c3F)ccnc2cc1OCC1(N)CC1
grade 3 Dizzy (paediatric recurrent refractory sarcoma; 10 mg): 0%

COc1cccc([C@]2(C)CCN(C[C@@H](NC(=O)[C@H]3Cc4ccc(O)cc4CN3)C(C)C)C[C@@H]2C)c1
AUCtotal (rat, plasma; intraperitoneal, 5 mg/kg): 816 ng·h/mL

CCCSc1ccc2nc(NC(=O)OC)[nH]c2c1
blood pH (mouse, blood; oral, 50 mg/kg): 7.54

CN1CCN(S(=O)(=O)c2cc([N+](=O)[O-])ccc2N(CCOS(C)(=O)=O)CCOS(C)(=O)=O)CC1
concentration (NSG mice female, brain; intraperitoneal, 25 mg/kg, 0.5 h): 57 nM

CC1(C)[C@H](C(=O)OCc2cccc(Oc3ccccc3)c2)[C@@H]1C=C(Cl)Cl
enzyme contribution to clearance (refers to: CYP3A5; human, age 1 year, recombinant human CYP3A5; 0.1 µM): 0.13%

CO[C@H]1C[C@@H]2CC[C@@H](C)[C@@](O)(O2)C(=O)C(=O)N2CCCC[C@H]2C(=O)O[C@H]([C@H](C)C[C@@H]2CC[C@@H](OC(=O)NCCOCCOCCOCCOCCOCCOCCOCCOCCC(=O)N3CCc4cc(Cn5nc(-c6ccc7oc(N)nc7c6)c6c(N)ncnc65)ccc4C3)[C@H](OC)C2)C[C@@H](O)[C@H](C)/C=C(\C)[C@@H](O)[C@@H](OC)C(=O)[C@H](C)C[C@H](C)/C=C/C=C/C=C/1C
incidence of Fatigue TEAE (patients with advanced solid tumours; intravenous, dose not given, any grade): 57.9%

CCC[C@@](N)(CO)CCc1ccc(OCCCCCC(C)C)cc1
half-life (hound dogs, male; oral, 5 mg/kg, capsule, fed state, median): 9.2 h

COc1ncccc1-c1cnn2ccc(N3CCN(C(=O)OC(C)C)CC3)nc12
drug concentration (mouse nerve ligation model, plasma; oral, 30 mg/kg, 120 min after last dose, repeat dosing day 5): 5900 nM
